Measurements of several laboratories.
Lines come from different studies, so protocols differ. ± marks the error that the study gave.

| Structure (SMILES) | test | system | conditions | scale | Cmax |
| --- | --- | --- | --- | --- | --- |
| CC(=O)O[C@H]1C(=O)[C@@]2(C)[C@H]([C@H](OC(=O)c3ccccc3)[C@]3(O)C[C@H](OC(=O)[C@H](O)[C@@H](NC(=O)c4ccccc4)c4ccccc4)C(C)=C1C3(C)C)[C@]1(OC(C)=O)CO[C@@H]1C[C@@H]2O |  | human, plasma | intravenous, 175 mg/m², cycle 1, no ritonavir, added: carboplatin |  | 4.7 ± 0.6 µM |
| Cc1nc(-c2ccc(OCC(C)C)c(C#N)c2)sc1C(=O)O |  | human, plasma | oral, 80 mg daily, day 7, geometric mean, added: verinurad 9 mg |  | 2460 ng/mL |
| CC(=O)N1CCN(c2ccc(OCC3COC(Cn4ccnc4)(c4ccc(Cl)cc4Cl)O3)cc2)CC1 (stereo not drawn) |  | healthy male human | oral, 200 mg, single dose alone |  | 2070 ng/mL |
| O=CC[C@@H](O)[C@H](O)[C@H](O)CO | HPLC-fluorescence | human patients, plasma | oral, 60 mg/kg/day, cycle 1 |  | 744 ± 289 µM |
| CC(C)NC[C@@H](C(=O)N1CCN(c2ncnc3c2[C@H](C)C[C@H]3O)CC1)c1ccc(Cl)cc1 |  | human, normal hepatic function, plasma | oral, 100 mg single dose, reference group versus Severe | baseline: NCI classification | 50.6 ng/mL |
| CON(C)C(=O)N1N=C(c2cc(F)ccc2F)S[C@@]1(CCCN)c1ccccc1 |  | human | intravenous, 0.8 mg/m^2, cycle 1 day 3, geometric mean |  | 6.68 ng/mL |
| NS(=O)(=O)OC[C@@H]1C[C@@H](n2ccc3c(N[C@H]4CCc5ccccc54)ncnc32)C[C@@H]1O |  | human | iv, 8 mg/m^2, day 8, geometric LS mean, added: fluconazole |  | 51 ng/mL |
| CCOC(=O)C1=C[C@@H](OC(CC)CC)[C@H](NC(C)=O)[C@@H](N)C1 |  | healthy Indian human, plasma | oral, 75 mg single, Tamiflu reference capsule fed |  | 36 ± 10 ng/mL |
| COC(=O)c1ccc2c(c1)NC(=O)/C2=C(\Nc1ccc(N(C)C(=O)CN2CCN(C)CC2)cc1)c1ccccc1 |  | healthy human controls matched to Child-Pugh B, plasma | oral, 100 mg single dose, fed, adjusted geometric mean |  | 7.8 ng/mL |
| Cl.NCCc1c[nH]c(=S)n1[C@H]1COc2c(F)cc(F)cc2C1 | mean | human, male, plasma | oral, 200 mg, fasting |  | 229 ng/mL |
| CO[C@H]1C[C@@H]2CC[C@@H](C)[C@@](O)(O2)C(=O)C(=O)N2CCCC[C@H]2C(=O)O[C@H]([C@H](C)C[C@@H]2CC[C@@H](O)[C@H](OC)C2)CC(=O)[C@H](C)/C=C(\C)[C@@H](O)[C@@H](OC)C(=O)[C@H](C)C[C@H](C)/C=C/C=C/C=C/1C |  | human, whole blood | oral, 20 mg, without grapefruit juice |  | 45.6 ng/mL |
| CC(C)(Sc1ccncc1-c1ccc(C#N)c2ccccc12)C(=O)O |  | human, plasma | oral, 5 mg, added: febuxostat 40 mg |  | 7.2 ng/mL |
| Cc1cccc(C)c1N(CC(=O)Nc1ccc(-c2ncon2)cc1)C(=O)C1CCS(=O)(=O)CC1 |  | human male, plasma | oral, 400 mg single dose, arithmetic mean, alone |  | 1900 ng/mL |
| C#C[C@]1(CO)O[C@@H](n2cnc3c(N)nc(F)nc32)C[C@@H]1O |  | human, plasma | oral, 10 mg once weekly, week 1 |  | 0.193 µM |
| CCOc1cc([C@@H](CS(C)(=O)=O)N2C(=O)c3cccc(NC(C)=O)c3C2=O)ccc1OC |  | healthy human, both sexes, plasma | oral, 30 mg single dose, added: rifampicin 600 mg i.v. infusion over 30 min |  | 324 ng/mL |
| CC[C@H](C)[C@@H]1NC(=O)[C@H](CCCNC(=N)N)NC(=O)[C@H](CC(=O)O)NC(=O)[C@H](CC(C)C)NC(=O)[C@H](CCCCN)NC(=O)[C@H](CC(C)C)NC(=O)CNC(=O)[C@H](Cc2ccccc2)NC(=O)[C@@H](NC(=O)CNC(=O)[C@H](CCCCN)NC(=O)[C@H](CO)NC(=O)[C@H](CC(C)C)NC(=O)CNC(=O)[C@H](CCCCN)NC(=O)[C@H](CCCCN)NC(=O)[C@H](CC(N)=O)NC(=O)[C@H](C)NC(=O)CNC(=O)[C@H](CCCCN)NC(=O)[C@H](Cc2ccc(O)cc2)NC(=O)[C@H](CCCCN)NC(=O)[C@H](CCCNC(=N)N)NC(=O)[C@H](C)NC(=O)[C@H](CC(N)=O)NC(=O)[C@@H]2CCCN2C(=O)[C@H](Cc2c[nH]cn2)NC(=O)[C@H](CCC(=O)O)NC(=O)[C@H](CCC(N)=O)NC(=O)CNC(=O)[C@@H]2CCCN2)CSSC[C@@H](C(=O)O)NC(=O)CNC(=O)[C@H](CC(C)C)NC(=O)CNC(=O)[C@H](CO)NC(=O)[C@H](CCSC)NC(=O)[C@H](CO)NC(=O)CNC1=O |  | human, plasma | subcutaneous, 15 µg/kg once daily, week 52 |  | 5.8 ng/mL |
| CC(C)(C(=O)NCC(F)(F)C(F)(F)F)C(=O)N[C@@H]1C(=O)Nc2ccccc2-c2ccccc21 |  | human, plasma | oral, 5 mg, day 1 |  | 129 ng/mL |
| CN1CC[C@H](c2c(O)cc(O)c3c(=O)cc(-c4ccccc4Cl)oc23)[C@H](O)C1 |  | human advanced solid tumours, plasma | intravenous, 70 flavopiridol, added: oxaliplatin 85 + leucovorin/5-FU |  | 2.23 ± 0.51 µM |

Excerpt of the above:
| Structure (SMILES) | test | system | conditions | scale | Cmax |
| --- | --- | --- | --- | --- | --- |
| COC(=O)c1ccc2c(c1)NC(=O)/C2=C(\Nc1ccc(N(C)C(=O)CN2CCN(C)CC2)cc1)c1ccccc1 |  | healthy human controls matched to Child-Pugh B, plasma | oral, 100 mg single dose, fed, adjusted geometric mean |  | 7.8 ng/mL |
